# Experimental data of several laboratories.
# Parts stem from different laboratories: compare values within a part only. Substitutions count along the parent as printed.

# Series 1
# Target: FOS, bZIP domain (human)
# Technique: DHFR protein complementation
# Medium: yeast
# Setting: single substitutions, most at no-binding floor
# Relative to: wild-type JUN-FOS pair
# Reading: higher = stronger binding
# Starting sequence: JUN, bZIP domain (human); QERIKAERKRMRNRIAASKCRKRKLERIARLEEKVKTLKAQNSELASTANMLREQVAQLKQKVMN; partner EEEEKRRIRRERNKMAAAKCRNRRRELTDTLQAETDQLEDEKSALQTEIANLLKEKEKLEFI
Change,binding fitness [natural log]
A40T,0.0165
L52V,-0.742
A57E,0.0224
A46Q,-0.0238
S43V,-0.13
Q41Y,-1.55
K39M,-0.678
Q55A,-0.00944

# Series 2
# Target: PABPC1L2, full length, GST fusion (mouse, UniProt A0ABA7IW68)
# Technique: RNAcompete
# Molecule type: RNA
# Medium: in vitro
# Concentration: 20 nM
# Setting: 7-mer, probes averaged, single round
# Relative to: mean of 7-mers
# Reading: higher = stronger binding
# Target sequence (chain): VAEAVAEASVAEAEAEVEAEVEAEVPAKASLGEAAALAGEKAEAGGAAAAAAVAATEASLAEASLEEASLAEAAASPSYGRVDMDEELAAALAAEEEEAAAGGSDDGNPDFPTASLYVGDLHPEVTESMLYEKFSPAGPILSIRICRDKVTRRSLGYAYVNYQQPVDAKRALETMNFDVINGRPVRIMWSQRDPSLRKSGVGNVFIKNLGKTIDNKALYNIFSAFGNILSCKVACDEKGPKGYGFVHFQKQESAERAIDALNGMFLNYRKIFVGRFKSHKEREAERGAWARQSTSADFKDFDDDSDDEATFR
Strand,7-mer Z-score
GUAAAAC,1.61
GACCCAA,0.0243
GCAUUCU,-0.329
GGGUUUG,-0.306
AUGCCUU,-0.202
GGGAUAA,0.539
UCUCGGU,-0.36
AGAGUAA,0.017

# Series 3
# Target: Transcriptional repressor CTCF (CTCF, Homo sapiens, UniProt P49711, residues 1-727, full length assumed)
# Chain of UniProt P49711 (whole entry, looked up): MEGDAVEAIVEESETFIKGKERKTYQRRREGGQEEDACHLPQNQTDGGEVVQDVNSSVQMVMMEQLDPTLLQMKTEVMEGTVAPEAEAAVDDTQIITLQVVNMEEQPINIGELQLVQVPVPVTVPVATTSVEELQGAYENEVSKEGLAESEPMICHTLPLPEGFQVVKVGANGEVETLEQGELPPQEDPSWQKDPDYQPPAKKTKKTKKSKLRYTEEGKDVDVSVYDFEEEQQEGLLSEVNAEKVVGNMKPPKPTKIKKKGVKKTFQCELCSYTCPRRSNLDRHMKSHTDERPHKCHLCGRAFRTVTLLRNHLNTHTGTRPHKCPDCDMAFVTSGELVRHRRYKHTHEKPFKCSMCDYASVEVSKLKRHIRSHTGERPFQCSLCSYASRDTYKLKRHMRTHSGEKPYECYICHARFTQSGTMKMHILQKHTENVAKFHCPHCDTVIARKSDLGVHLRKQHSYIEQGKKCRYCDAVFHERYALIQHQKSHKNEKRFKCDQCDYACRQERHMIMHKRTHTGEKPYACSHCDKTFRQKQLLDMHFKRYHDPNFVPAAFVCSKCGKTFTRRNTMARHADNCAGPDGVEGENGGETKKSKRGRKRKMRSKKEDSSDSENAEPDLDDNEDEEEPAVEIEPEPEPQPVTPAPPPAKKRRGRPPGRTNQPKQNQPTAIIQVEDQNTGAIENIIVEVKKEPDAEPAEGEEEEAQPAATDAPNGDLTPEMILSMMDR
# Technique: protein-binding microarray
# Molecule type: double-stranded DNA, one strand shown
# Medium: in vitro
# Concentration: not given
# Setting: k-mer, scored over probes, only values ≥0.25
# Reading: higher = stronger binding
Strand,E-score
CTTATTTC,0.267
ACGTATAC,0.255
GTACTACA,0.281
GTGCAATA,0.264
TAATTATA,0.338
CTAATAAC,0.275
CATTATAC,0.275
TACTCATA,0.254

# Single results of other studies
# Starting sequence: viral docking peptide; TSVRRALFTGGSD
Change,target,test,test system,conditions,scale,measurement,result
V3R,"CCNE2, cyclin fold, Cln2 fusion (human)","yeast growth competition, sequencing",yeast,strong parent motif,"relative to: not given, higher = stronger binding",normalised enrichment score,1.11

# For quick reference, copied from above (series 2):
Strand,7-mer Z-score
GUAAAAC,1.61
GACCCAA,0.0243
